Earlier results as cited in several papers.
Protocols differ between the studies behind these lines. ± marks the error that the study gave.

Compound	cell line	assay	conditions	IC50
O=C(NO)c1ccc(NC(=O)[C@@H](NC(=O)c2ccc3ccccc3c2)c2ccccc2)cc1	U-937	cell viability, MTT	–	1.32 µM
CC1=C(C)C(=O)OC(C(C)C2CCC3C4CC5OC56C(O)C=CC(=O)C6(CO)C4CCC23C)C1 (centres unmarked)	Hs-578T	cell growth	–	0.47 µM
CC1=CC(C)=[N+]2C1=C(CO)c1c(C)cc(C)n1[B-]2(C)C	H460	cell viability	concentration not given, white light irradiation	0.17 ± 0.02 µM
Cc1cccc(NC(=O)Nc2nnc(SCc3nc4ccccc4c(=O)[nH]3)s2)c1	PC-3	cell growth	–	17.7 µM
Cc1ccc(C2C3=C(COC3=O)NC3=C2C(=O)c2ccccc2C3=O)cc1 (centres unmarked)	HepG2 cells	cell growth	–	2.24 ± 0.01 µM
[Cl-].[Cl-].[Ru+2].c1ccc(-c2ccccn2)nc1.c1ccc(-c2ccccn2)nc1.c1cnc2c(c1)ccc1cccnc12	Caco-2	–	dark	> 100 µM
CCC1=C(O)c2c(oc(-c3ccc(OC)c4ccccc34)cc2=O)C(CC)(CC)C1=O	HCT-8	cell growth, SRB	–	3.35 µM
CC[C@@H](C)[C@H]1NC(=O)[C@@H]([C@H](C)O)NC(=O)[C@@H](Cc2c[nH]cn2)NC(=O)CNC(=O)[C@@H](CCCNC(=N)N)NC(=O)CNC(=O)[C@@H](Cc2ccccc2)NC1=O	endothelial cells	VEGF-induced proliferation	together with: VEGF	0.00015 µM
COc1cc(/C=C/C(=O)NCCc2ccc(O)c(OC)c2)ccc1O	RAW264.7	nitric oxide production	24 h, together with: LPS 100 ng/mL	> 50 µM
CC(=O)OC1C2C3CCC(C(C)(O)C4CC(C)=C(C)C(=O)O4)C3(C)CCC2C2(C)C(=O)C=CC(O)C23OC13 (centres unmarked)	Lu1	cell growth	–	3.58 µM
Cc1cc2[nH]c(C(=O)Nc3ccccc3C)c(CN3CCOCC3)c2s1	human cells	viability	–	> 10 µM
CC1=C(CO)C(=O)O[C@@H]([C@@H](C)[C@H]2CC[C@H]3[C@@H]4C[C@H]5O[C@]56[C@@H](O)C=CC(=O)[C@]6(C)[C@H]4CC[C@]23C)C1	Hep G2	cell growth	–	0.13 µM
Oc1cccc(-c2cccc(O)n2)n1.[Cl-].[Cl-].[Ru+2].c1cnc2c(c1)c1c(c3cccnc32)OCCO1.c1cnc2c(c1)c1c(c3cccnc32)OCCO1	HeLa	cell viability	together with: blue light 450 nm, 1 h	120 µM
O=C1c2ccccc2NC(c2ccc(O)c(O)c2)N1/N=C/c1ccc(O)c(O)c1 (centres unmarked)	human renal tubule TH-1	cytotoxicity	–	178 µM
CCC1=C(O)c2c(oc(-c3cccc4ccccc34)cc2=O)C(CC)(CC)C1=O	KB	cell growth, SRB	–	1.55 µM
CC1=C(CO)C(=O)OC(C(C)C2CCC3C4CC5OC56C(O)C(OS(=O)(=O)O)CC(=O)C6(C)C4CCC23C)C1 (centres unmarked)	Hs-578T	cell growth	–	1.16 µM
COc1cc([C@H]2Oc3cc4c(cc3C(=O)[C@]2(Cl)[N+](=O)[O-])OCO4)cc(OC)c1OC	L1210	cell growth	–	6 µM
O=C1OCC2=C1C(c1cccc([N+](=O)[O-])c1)C1=C(N2)C(=O)c2ccccc2C1=O (centres unmarked)	MCF7 cells	cell growth	–	2.19 ± 0.02 µM
CC(C)(C)C1=CC(=NNC(=O)c2ccncc2)C=C(C(C)(C)C)C1=O	HFF	cell viability	–	28 µM
CCN(CC)c1ccc2c(c1)Oc1cc(N(CC)CC)ccc1C21c2ccccc2C(=O)N1N=Cc1ccnc(-c2cc(C)ccn2)c1.Cc1c(C)c(-c2ccc(-c3ccccc3)cc2)[c-](C)c1C.F[P-](F)(F)(F)(F)F.[Cl-].[Ir+3]	HepG2 cancer cells	–	–	5.1 ± 0.1 µM

Repeated from above:
Compound	cell line	assay	conditions	IC50
Cc1cc2[nH]c(C(=O)Nc3ccccc3C)c(CN3CCOCC3)c2s1	human cells	viability	–	> 10 µM
CC1=C(CO)C(=O)O[C@@H]([C@@H](C)[C@H]2CC[C@H]3[C@@H]4C[C@H]5O[C@]56[C@@H](O)C=CC(=O)[C@]6(C)[C@H]4CC[C@]23C)C1	Hep G2	cell growth	–	0.13 µM
